Results from different studies.
Compare with care: the assays were run in different laboratories.

Molecule = NTVKSVGKFCLEASF; target or system = human CD4 T cells; assay = AIM; test system = peptide; endpoint = responding donors; value = 8%
Molecule = O=C(O)C1(c2ccc(-c3ccc(Cl)c(Cl)c3)c(F)c2)CC1; target or system = Replicase polyprotein 1ab, main protease (rep, Severe acute respiratory syndrome coronavirus 2, UniProt P0DTD1); assay = reporter gene (mKate2), inhibitor; conditions = 20 µM; endpoint = inhibition; value = -0.508%
Molecule = Cn1cnc(Cn2c(=O)[nH]/c(=N\c3cc4cn(C)nc4cc3Cl)n(Cc3cc(F)c(F)cc3F)c2=O)n1; test system = human, mild renal impairment, plasma; conditions = oral, 375 mg single dose; endpoint = Vz/F; value = 19.7 L
Molecule = CC[C@H](C)[C@H](NC(=O)[C@H](CC(C)C)NC(=O)[C@H](Cc1c[nH]c2ccccc12)NC(=O)[C@H](CCC(N)=O)NC(=O)[C@@H](NC(=O)[C@H](Cc1ccccc1)NC(=O)[C@H](C)NC(=O)[C@H](CCCCNC(=O)COCCOCCNC(=O)COCCOCCNC(=O)CC[C@H](NC(=O)CCCCCCCCCCCCCCCCCCC(=O)O)C(=O)O)NC(=O)[C@H](CCC(N)=O)NC(=O)[C@H](C)NC(=O)[C@@H](NC(=O)[C@H](CCCCN)NC(=O)[C@H](CC(=O)O)NC(=O)[C@H](CC(C)C)NC(=O)C(C)(C)NC(=O)[C@@H](NC(=O)[C@H](CO)NC(=O)[C@H](Cc1ccc(O)cc1)NC(=O)[C@H](CC(=O)O)NC(=O)[C@H](CO)NC(=O)[C@@H](NC(=O)[C@H](Cc1ccccc1)NC(=O)[C@@H](NC(=O)CNC(=O)[C@H](CCC(=O)O)NC(=O)C(C)(C)NC(=O)[C@@H](N)Cc1ccc(O)cc1)[C@@H](C)O)[C@@H](C)O)[C@@H](C)CC)[C@@H](C)CC)C(C)C)C(=O)N[C@@H](C)C(=O)NCC(=O)NCC(=O)N1CCC[C@H]1C(=O)N[C@@H](CO)C(=O)N[C@@H](CO)C(=O)NCC(=O)N[C@@H](C)C(=O)N1CCC[C@H]1C(=O)N1CCC[C@H]1C(=O)N1CCC[C@H]1C(=O)N[C@@H](CO)C(N)=O; test system = patients with type 2 diabetes, plasma; conditions = 5/5/10/10 mg escalating, day 22, median; endpoint = Tmax; value = 24 h
Molecule = GKQGNFKNLREFVFK; target or system = human CD4 T cells; assay = AIM; test system = peptide; endpoint = responding donors; value = 9%
Molecule = Nc1ncnc2c([C@@H]3N[C@H](CO)[C@@H](O)[C@H]3O)c[nH]c12; target or system = Lassa mammarenavirus; assay = viral replication; test system = HeLa, Josiah; conditions = 100 µM; endpoint = inhibition; value = 81.6%

Excerpt of the above:
Molecule = GKQGNFKNLREFVFK; target or system = human CD4 T cells; assay = AIM; test system = peptide; endpoint = responding donors; value = 9%
